Measured values collected from several papers.
Protocols differ between the studies behind these lines. Several values in a cell are separate wells, animals, samples, runs or records. ± marks the error that the study gave.

| Compound | cell line | test | test system | conditions | scale | endpoint | result |
| --- | --- | --- | --- | --- | --- | --- | --- |
| CCN1CCN(Cc2ccc(NC(=O)c3ccc(C)c(-c4ccc5nc(NC(=O)C6CC6)cn5c4)c3)cc2C(F)(F)F)CC1 | persistent SET-2 | Western blot | – | 1 µM, 4 h | – | pSTAT5 level | decreased |
| Cc1ccc2c(c1)C(=O)[C@]1(O)CCN(c3ccc4nc(C)ccc4c3)C1=N2.Cl | murine Trp53-/- cells | refers to: RAS, ERK1/2 and SRC | – | 5 µM, 48 h | reference: untreated | activation | 2 to 3 fold |
| Cc1cc(Nc2ncc(Cl)c(Nc3ccccc3S(=O)(=O)C(C)C)n2)c(OC(C)C)cc1C1CCNCC1 | CLB-BAR | phosphoproteomics LC-MS/MS, refers to: RPS6 phosphorylation | – | 200 nM, 60 min | reference: untreated | log2 fold change | -4.03 |
| CC(C)C[C@H](NC(=O)CNC(=O)c1cc(Cl)ccc1Cl)B(O)O | BRD4-HiBiT cells | BRD4 degradation rescue, inhibitor | – | 8 h, together with: dBET6 500 nM | – | EC50 | 149 nM |
| O=C(/C=C/C=C/C=C/C1CCCCC1)NC1=C[C@@](O)(/C=C/C=C/C=C/C(=O)NC2=C(O)CCC2=O)[C@@H]2O[C@@H]2C1=O | snuc5 | cell growth, inhibitor, CellTiter-Glo luminescence | – | 78 h | reference: day 0 cell count | GI50 | 13600 nM |
| COc1cnc2cccc(N3CCc4c(cc(Cn5ccnc5C)cc4-c4cn(C)nc4C(F)(F)F)C3=O)c2c1 | MOLM-13 | cell growth, inhibitor | – | 120 h | – | EC50 | 490 nM |
| CCCCCCOC(=O)[C@]1(O)C[C@@H]2O[C@@]1(C)n1c3ccccc3c3c4c(c5c6ccccc6n2c5c31)C(=O)NC4 | SK-OV-3 | ATP | 2D monolayer culture | 1 µM, 4 days | reference: untreated | relative cell number | 107% |
| Cc1cnc(NC2CCOCC2)nc1-n1cnc(C(=O)NC(CN)c2cc(F)cc(Cl)c2)c1 (centres unmarked) | MINO | flow cytometry | – | 1 µM, 48 h | – | G1 phase cells | 48.5% |
| C=CC(=O)Nc1cccc(Oc2nc(Nc3ccc(N4CCN(C)CC4)cc3)nc3ccoc23)c1 | TMD8 RAC2 knock-out | calcium flux, FLIPR | – | – | – | maximal inhibition | > 60% |
| Cn1cc(Nc2nccc(-c3ccc4c(c3)CN(C3COC3)CC[C@H]4NC(=O)c3cn(C(C)(C)C)nn3)n2)cn1 | mouse splenic B cells | refers to: UVA-Induced MAPK signalling | – | 30 mg/kg, IgD-activated in vivo | reference: vehicle, direction not given | pathway activation z-score | 3 |
| Cc1nn(-c2nc3ccccc3s2)c(O)c1C(c1ccccc1C(=O)O)c1c(C)nn(-c2nc3ccccc3s2)c1O | THP1-Dual | IFN luciferase reporter | – | 20 µM, together with: HT-DNA | – | inhibition | 38.3% and 39.7% and 39.5% |
| CCOC(=O)C1=C(C)NC2=C(C(=O)OC(c3ccccc3)C2)C1c1ccccc1Cl (centres unmarked) | J774.A1 | cytotoxicity | – | – | – | EC50 | > 20000 nM |
| Cn1cc(-n2cnc3c(NCc4nc5cc(Cl)c(Cl)cc5[nH]4)nc(N4CCOCC4)nc32)cn1 | MDA-MB-231 | qRT-PCR, refers to: ATR | – | 0.05 µM, 6 h, unit not given | reference: DMSO | mRNA level | 0.691 and 0.649 and 0.702 |
| Cn1cc(-c2ccc(-c3cncc(Cl)c3N3CCC4(CCNC4=O)CC3)cc2)cn1 | COLO 205 | microarray, refers to: PLAUR | – | concentration not given, 6 h, gene set uPAR | reference: untreated cells | fold change in expression | 1.71 |
| CC[C@H](C)[C@H](NC(=O)[C@H](C)NC(=O)CNC(=O)[C@H](Cc1ccccc1)NC(=O)[C@H](CC(N)=O)NC(=O)[C@H](CC(N)=O)NC(=O)[C@H](CO)NC(=O)[C@H](CO)NC(=O)[C@H](Cc1c[nH]cn1)NC(=O)[C@@H](NC(=O)[C@H](CC(C)C)NC(=O)[C@H](Cc1ccccc1)NC(=O)[C@H](CC(N)=O)NC(=O)[C@H](C)NC(=O)[C@H](CC(C)C)NC(=O)[C@H](CCCNC(=N)N)NC(=O)[C@H](CCC(N)=O)NC(=O)[C@@H](NC(=O)[C@H](C)NC(=O)[C@@H]1CSSC[C@H](NC(=O)[C@@H](N)CCCCN)C(=O)N[C@@H](CC(N)=O)C(=O)N[C@@H]([C@@H](C)O)C(=O)N[C@@H](C)C(=O)N[C@@H]([C@@H](C)O)C(=O)N1)[C@@H](C)O)C(C)C)C(=O)N[C@@H](CC(C)C)C(=O)N[C@@H](CO)C(=O)N[C@@H](CO)C(=O)N[C@H](C(=O)N[C@@H](CC(N)=O)C(=O)N[C@H](C(=O)NCC(=O)N[C@@H](CO)C(=O)N[C@@H](CC(N)=O)C(=O)N[C@H](C(=O)N[C@@H](Cc1ccc(O)cc1)C(N)=O)[C@@H](C)O)C(C)C)[C@@H](C)O | INS-1 | DCFH-DA | – | 1 µM, 2 h | reference: control | intracellular ROS level | ~6 fold |
| NS(=O)(=O)OC[C@@H]1C[C@@H](n2ccc3c(N[C@H]4CCc5ccccc54)ncnc32)C[C@@H]1O | BRD4-HiBiT cells | BRD4 degradation rescue, inhibitor | – | 24 h, 50% degradation rescued, together with: dBET6 500 nM | – | EC50 | 56.8 nM |
| CCOC(=O)C1=C(C)NC2=C(C(=O)OC(c3ccccc3Cl)C2)C1c1ccccc1Cl (centres unmarked) | J774.A1 | cytotoxicity | – | – | – | EC50 | > 20000 nM |
| CCn1cc(-c2cc(Cn3ccoc3=N)cc3c2CCN([C@@H](C)c2cc(OC)ccn2)C3=O)c(C(F)(F)F)n1 | NCI-H520 | cell growth, inhibitor | – | 120 h | – | EC50 | 1270 nM |
| Cc1nc(NC(=O)N2CCC[C@H]2C(N)=O)sc1-c1ccnc(C(C)(C)C(F)(F)F)c1 | BT-20 | growth rate inhibition, CellTiter-Glo | – | 120 h | – | IC50 | 1780 nM |
| CC/C(=N\NC(=O)NCc1cccc(O)c1)c1ccc(O)c(C)c1O | SK-OV-3 | Western blot, refers to: LATS | – | 5 µM, 1 h, 3D gellan gum culture, unit not given | reference: β-actin | protein level | 0.71 ± 0.44 |
| COc1cccc2c1C(=O)c1c(O)c3c(c(O)c1C2=O)C[C@@](O)(C(=O)CO)C[C@@H]3O[C@H]1C[C@H](N)[C@H](O)[C@H](C)O1 | HepG2 | refers to: glutathione | – | 6 h, distribution mode 1 | – | point of departure | 0.00437 µM |
| CCn1cc(-c2cc(Cn3ccnc3)cc3c2CCN([C@H](c2cc(OC)ccn2)C2CC2)C3=O)c(C(F)(F)F)n1 | YD-10B | cell growth, inhibitor | – | 120 h | – | EC50 | 14800 nM |
| O=P(O)(O)C(O)(Cn1ccnc1)P(=O)(O)O | hFOB 1.19 | AlamarBlue | – | 3.8 µM, 48 h | reference: control | viability | 100 ± 2% |

Some of these lines once more:
| Compound | cell line | test | test system | conditions | scale | endpoint | result |
| --- | --- | --- | --- | --- | --- | --- | --- |
| Cc1cnc(NC2CCOCC2)nc1-n1cnc(C(=O)NC(CN)c2cc(F)cc(Cl)c2)c1 (centres unmarked) | MINO | flow cytometry | – | 1 µM, 48 h | – | G1 phase cells | 48.5% |
| C=CC(=O)Nc1cccc(Oc2nc(Nc3ccc(N4CCN(C)CC4)cc3)nc3ccoc23)c1 | TMD8 RAC2 knock-out | calcium flux, FLIPR | – | – | – | maximal inhibition | > 60% |
